Results pooled from the literature.
Numbered parts are unrelated; each lists some results of a single study. Changes are numbered by the printed parent chain.

Sample 1
Target: Histone acetyltransferase KAT6A, winged helix 2, GST fusion (KAT6A, Homo sapiens, UniProt Q92794, residues 85-181)
Method: protein binding microarray
Form: double-stranded DNA, one strand shown
Sample: in vitro
Tested at: not given
Notes: 8-mer, flanks averaged, mean of 2 arrays, mostly near background
Relative to: not given
Direction: higher = stronger binding
Target sequence (chain): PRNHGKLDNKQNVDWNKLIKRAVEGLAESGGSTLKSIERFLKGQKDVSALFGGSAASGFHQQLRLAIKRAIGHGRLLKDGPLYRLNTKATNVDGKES
Sequence | E-score
CCGGCTCC | 0.242
GTTCGGGA | -0.0411
CCCAAGCA | 0.0298
ACCCGTGG | 0.0501
ACTCTTTG | -0.0986
ATTACATC | 0.0252
AACCGGTA | -0.158
GGGTTCAA | -0.0955
CCTTTCAG | 0.036
ACTCGTCT | -0.0107
ACTTAGAA | -0.109
AAATAAGT | -0.098
AACTAGTG | -0.198
CTAGTTGA | -0.00831
ACGCCCTG | 0.113
AGACCGTA | -0.157
CGTGTGGA | -0.0157
TCAAATAA | 0.0176
ACCCTTAT | -0.0975
AATGTAAC | 0.0935
CATCTTTA | 0.0402
CGAAACTC | 0.0269
ACCACTGA | -0.0305
CAAGAGGC | -0.0256
GGGCGCCC | 0.333

Sample 2
Target: ABI1, truncated, D143A, DHFR fusion (Arabidopsis thaliana, UniProt P49597)
Method: DHFR PCA, dose-response
Sample: yeast
Notes: Hill fit, mean, not affinity
Together with: (+)-ABA, dose series
Direction: lower = more sensitive
Starting sequence: PYL1, truncated, DHFR fusion (Arabidopsis thaliana, UniProt Q8VZS8); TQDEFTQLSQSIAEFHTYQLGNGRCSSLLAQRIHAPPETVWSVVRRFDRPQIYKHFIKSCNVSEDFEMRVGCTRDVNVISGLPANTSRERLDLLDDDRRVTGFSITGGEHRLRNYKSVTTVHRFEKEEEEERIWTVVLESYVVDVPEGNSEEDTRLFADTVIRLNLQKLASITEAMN
Substitution | ABA EC50 [µM]
Q19I | 3.08
M68H | 6.84
E151C | 1.94
A175T | 1.86
I52G | 10.1
S171K | 0.654
R111K | 9.54
E128Y | 3.71
V70Q | 10.4
N22Q | 2.84
L156W | 4.61
E64K | 3.92
C25Q | 113
R163M | 31.7
V142E | 1.8
K116V | 74.7
E127Q | 2.61
D3T | 3.37
A30M | 1.15
L8Q | 21.2

Sample 3
Target: RNA binding protein fox-1 homolog 2, RRM domain, GST-SBP tag (RBFOX2, Homo sapiens, UniProt O43251-10, residues 100-194)
Method: RNA Bind-n-Seq
Form: RNA
Sample: in vitro
Tested at: 365 nM
Notes: natural RNA segment, single round, ends assumed
Relative to: no-protein control
Direction: higher = stronger binding
Construct (chain): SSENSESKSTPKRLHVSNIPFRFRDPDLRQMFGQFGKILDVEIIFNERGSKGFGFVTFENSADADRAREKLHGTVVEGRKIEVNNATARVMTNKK
Sequence | RBNS enrichment (R)
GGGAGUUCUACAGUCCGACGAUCGGAGAGCACGUUGAUCUGAACUUUAAAUCAAUCAGUGCUGCUGGCACAAUGAAAGGUGGAACUGCACUUCUGUUGAGCUCUCAGUUCUGCGGAAUUUGGUACUCAUUACCUGGAAUUCUCGGGUGCCAA | 0.78
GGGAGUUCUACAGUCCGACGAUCGUGUACGUAUCAUUUCUAAUUUUAAGUUAUUUUAAAAAAAUUCAUCAUAUGAAUGUUCUUGGUUCCCAUUGUGACGAUUAUUUAUUUCUGUAAAAUUUGUUUAGAAGUACUGGAAUUCUCGGGUGCCAA | 2.37
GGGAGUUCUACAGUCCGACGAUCGCCUUAUUCUUCAGCUAGUGGUUUAUAAAGAGGCUGCAUAGAAAGUUUUACACAUGGAAGCAGCUGAUGUAGAGACUUCAUAUAGGCAGCUGCAGUCCUAAAGUCUCAAGUGGAAUUCUCGGGUGCCAA | 0.452
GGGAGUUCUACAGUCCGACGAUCCACAUUUACAUUUCUAAGUAGUUGUAUAGUAGAAGCAGGAAGCUCUUAUUGCUUAUUUGGUCGUAAUGAAAAUAAUUUGUAAAAUGUCCUUUAAAAGUUUAAUGAUACUUUGGAAUUCUCGGGUGCCAA | 1.01
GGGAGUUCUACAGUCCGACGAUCCCCAGUAUCCUCUUGUAUGACUGUAUAUGUCUAUGUCUGGGAUCCAGGGCAAAUGUGAAUUUUCUUUUGAUUUGGGAGAUUGUUCACAGGAAGUAGUCCUCCCCUCUCAUUGGAAUUCUCGGGUGCCAA | 0.482
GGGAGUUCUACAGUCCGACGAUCAACAGUUUUAUGCUGAUGAUAAUUUAUCUACAUGCAUUUCAAUAAACCUUUUGUUUCCUAAGACUAGUACAUGGUACCUUUAUUGACCAUUAAAAACCACCACUUUUUGCUGGAAUUCUCGGGUGCCAA | 0.277
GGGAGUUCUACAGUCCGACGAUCUGUGAUUGAGGGGUGUUCUGCCCUGCCUCCACUGUCACAGCCUUUAAUAAAGAUGUGAAUCUUGAAAGCCUGAUGCUCCAAUCACAGACUCUGCUCAGCAUCCCCAGAGGUGGAAUUCUCGGGUGCCAA | 0.725
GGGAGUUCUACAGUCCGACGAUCGAGCAGAUCAUAGUAUAUGAGAUAGGAAUUCCCAUCCUAUUUGAGUUGAACUCUCUUCUGUACCUCUGUGCUCUGUGUCUGUGCAUGAAGGCUCAGUCUUUAGAGGCACUUGGAAUUCUCGGGUGCCAA | 13.7

Sample 4
Target: CCNA1, cyclin fold, Cln2 fusion (human)
Method: yeast growth competition, sequencing
Sample: yeast
Notes: weak parent motif
Relative to: not given
Direction: higher = stronger binding
Starting sequence: CDKN1C docking peptide (human); TSACRSLFGPVDH
Substitution | normalised enrichment score
V11A | 0.477
H13A | 0.408
P10A | 0.327
S2A | 0.354
F8L | 0.312
S6A | 0.256
D12A | 0.309

Sample 5
Target: RING finger protein unkempt homolog, zinc fingers 1-6, GST-SBP tag (UNK, Homo sapiens, UniProt Q9C0B0, residues 30-357)
Sequence of UniProt Q9C0B0 (30-357, looked up): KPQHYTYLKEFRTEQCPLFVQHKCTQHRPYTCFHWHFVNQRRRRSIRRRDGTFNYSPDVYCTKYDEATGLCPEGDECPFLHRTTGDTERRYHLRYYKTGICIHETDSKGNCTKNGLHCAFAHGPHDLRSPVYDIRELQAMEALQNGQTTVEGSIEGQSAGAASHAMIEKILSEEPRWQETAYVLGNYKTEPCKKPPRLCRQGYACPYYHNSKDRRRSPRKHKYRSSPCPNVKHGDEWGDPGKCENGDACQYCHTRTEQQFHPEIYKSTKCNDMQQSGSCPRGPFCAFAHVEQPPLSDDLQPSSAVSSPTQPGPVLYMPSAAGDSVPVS
Method: RNA Bind-n-Seq
Form: RNA
Sample: in vitro
Tested at: not given
Notes: RNA with constant flanks, ends assumed
Relative to: input RNA pool
Direction: higher = stronger binding
Sequence | bound/input enrichment [ratio]
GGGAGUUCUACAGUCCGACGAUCGCACCCAGGUCCUAUAGGAUAGCACCUAGGCCAUACAGGUUAGCACCUAGACCCUUGAUGUCCGCAUCUAGACGUUCUAUGAUGAUGUCCUAUGCUGCAGAACGUUCCAUGAUGUCAUCUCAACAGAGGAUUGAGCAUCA | 0.184
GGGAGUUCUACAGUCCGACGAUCAACUCAAACCCAGCCCUCAAUGACAACCUAGAGAAGGGACUCCUGAAAGCCCUGAAGGUUCCCGACAAUUACCUGACAUCCCCCCUCCCAGAAGAAGUGGAUGAAACCAGCGCCGAAGAUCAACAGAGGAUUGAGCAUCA | 0.53
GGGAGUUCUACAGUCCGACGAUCCGGGUCGGAGACUACGUUUAUUUUGAGAAUUCCUCCAGCAACCCGUACCUCAUCAGACGGACCGAGGAGCUCAACAAGACUGCAAGUGGCAAUGUGGAAGCAAAAGUCGUCUGCUUUUACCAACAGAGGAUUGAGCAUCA | 0.14
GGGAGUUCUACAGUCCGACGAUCUAAAUACAUAUAUAUUUGCUUGACGAAUCACCAAGCACAUUGGUGAGAGGGUCUUUUCCUACCGAAUUCACUCAUCCGUUUUGUUGUGUUGUCCUGAGCUUCCCAAUGUUGAGGUCUCUACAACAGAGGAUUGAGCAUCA | 0.194
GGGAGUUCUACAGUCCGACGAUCUUAAAAAAGAAUCCUUUGGGCCAGUGAAUAAAACAGGGCAAAUUUUAGUUAGAAAUUCCGACCGAAAAUAUACACUUGCAACUUUCCUAGUGUCUCUGAGUCUGCAGCAGUCACUAUAGCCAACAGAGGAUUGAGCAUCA | 0.526
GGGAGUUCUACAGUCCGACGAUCCAUUCUGAAUUUCAUAUAGUAUAAGUUAGACAUUGCUUAAUCCUUUUUUAAAUGUAUUUACACCGACACGAACACUCAAAUUGUUGGAUUUUUAAAACUAUAUCUGACAUAAUUUUUUUCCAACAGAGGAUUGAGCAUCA | 12.7
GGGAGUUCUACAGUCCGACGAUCGAACCGAAAGGCCAAAUUCCCUCCUCCCUUCUACUGCUUCUACCAACUGGAAGCACAGAAAACCCGAAUUUCAUUUAUUUUGUUUUUAAAAUAUAUAUGUUGAUUUCUUGUAACAUCCAACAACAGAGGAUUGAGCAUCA | 0.294

Some of these lines once more (sample 2):
Substitution | ABA EC50 [µM]
E64K | 3.92
C25Q | 113
R163M | 31.7
V142E | 1.8
K116V | 74.7
E127Q | 2.61
D3T | 3.37
A30M | 1.15
